Measured values collected from several papers.
Each numbered part is a random draw from the data of one study; scales do not carry over between parts. Values joined by “and” are separate records of one study, mostly repeats; a detail may differ.
Sequence of UniProt P9WI81 (whole entry, looked up): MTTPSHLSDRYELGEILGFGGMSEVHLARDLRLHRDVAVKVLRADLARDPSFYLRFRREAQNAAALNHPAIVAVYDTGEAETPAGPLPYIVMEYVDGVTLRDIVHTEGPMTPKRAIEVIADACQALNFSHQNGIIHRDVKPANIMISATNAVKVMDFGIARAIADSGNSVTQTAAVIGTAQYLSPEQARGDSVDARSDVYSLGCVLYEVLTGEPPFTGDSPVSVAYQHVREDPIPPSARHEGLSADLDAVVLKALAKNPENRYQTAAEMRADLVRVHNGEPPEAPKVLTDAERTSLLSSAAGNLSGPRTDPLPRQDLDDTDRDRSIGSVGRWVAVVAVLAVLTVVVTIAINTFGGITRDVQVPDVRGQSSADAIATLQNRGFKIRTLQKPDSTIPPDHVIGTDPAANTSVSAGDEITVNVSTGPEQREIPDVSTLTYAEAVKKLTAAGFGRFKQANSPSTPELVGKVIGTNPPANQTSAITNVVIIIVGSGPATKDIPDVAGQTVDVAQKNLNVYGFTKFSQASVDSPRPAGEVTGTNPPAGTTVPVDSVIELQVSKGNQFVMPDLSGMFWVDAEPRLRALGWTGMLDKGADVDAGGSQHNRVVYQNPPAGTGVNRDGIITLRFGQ
Sequence of UniProt P07550 (whole entry, looked up): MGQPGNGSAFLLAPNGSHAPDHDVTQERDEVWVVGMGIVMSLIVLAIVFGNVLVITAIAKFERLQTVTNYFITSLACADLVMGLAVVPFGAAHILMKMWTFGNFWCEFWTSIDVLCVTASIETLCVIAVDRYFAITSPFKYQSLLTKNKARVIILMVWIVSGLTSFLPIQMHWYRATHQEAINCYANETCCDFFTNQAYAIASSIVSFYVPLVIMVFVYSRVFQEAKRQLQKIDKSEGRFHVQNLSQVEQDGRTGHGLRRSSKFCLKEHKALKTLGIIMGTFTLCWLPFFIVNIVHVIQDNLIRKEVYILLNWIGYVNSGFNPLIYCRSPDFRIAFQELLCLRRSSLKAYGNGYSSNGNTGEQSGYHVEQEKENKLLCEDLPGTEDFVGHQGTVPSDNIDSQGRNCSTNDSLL
Sequence of UniProt P46098 (whole entry, looked up): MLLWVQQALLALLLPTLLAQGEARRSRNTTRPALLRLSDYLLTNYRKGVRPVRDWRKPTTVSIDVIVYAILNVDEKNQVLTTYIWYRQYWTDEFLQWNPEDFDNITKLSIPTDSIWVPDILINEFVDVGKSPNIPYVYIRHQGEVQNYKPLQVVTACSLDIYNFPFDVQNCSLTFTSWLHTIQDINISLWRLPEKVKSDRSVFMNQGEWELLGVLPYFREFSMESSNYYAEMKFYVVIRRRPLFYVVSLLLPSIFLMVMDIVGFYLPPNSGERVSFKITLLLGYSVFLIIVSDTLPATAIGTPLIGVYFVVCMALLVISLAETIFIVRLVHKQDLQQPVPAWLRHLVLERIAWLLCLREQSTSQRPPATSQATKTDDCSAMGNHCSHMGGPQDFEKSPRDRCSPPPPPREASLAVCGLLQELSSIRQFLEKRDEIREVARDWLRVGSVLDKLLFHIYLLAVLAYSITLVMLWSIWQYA

Block 1
Target: Leukocyte tyrosine kinase receptor (LTK, Homo sapiens, UniProt P29376)
Sequence of UniProt P29376 (whole entry, looked up): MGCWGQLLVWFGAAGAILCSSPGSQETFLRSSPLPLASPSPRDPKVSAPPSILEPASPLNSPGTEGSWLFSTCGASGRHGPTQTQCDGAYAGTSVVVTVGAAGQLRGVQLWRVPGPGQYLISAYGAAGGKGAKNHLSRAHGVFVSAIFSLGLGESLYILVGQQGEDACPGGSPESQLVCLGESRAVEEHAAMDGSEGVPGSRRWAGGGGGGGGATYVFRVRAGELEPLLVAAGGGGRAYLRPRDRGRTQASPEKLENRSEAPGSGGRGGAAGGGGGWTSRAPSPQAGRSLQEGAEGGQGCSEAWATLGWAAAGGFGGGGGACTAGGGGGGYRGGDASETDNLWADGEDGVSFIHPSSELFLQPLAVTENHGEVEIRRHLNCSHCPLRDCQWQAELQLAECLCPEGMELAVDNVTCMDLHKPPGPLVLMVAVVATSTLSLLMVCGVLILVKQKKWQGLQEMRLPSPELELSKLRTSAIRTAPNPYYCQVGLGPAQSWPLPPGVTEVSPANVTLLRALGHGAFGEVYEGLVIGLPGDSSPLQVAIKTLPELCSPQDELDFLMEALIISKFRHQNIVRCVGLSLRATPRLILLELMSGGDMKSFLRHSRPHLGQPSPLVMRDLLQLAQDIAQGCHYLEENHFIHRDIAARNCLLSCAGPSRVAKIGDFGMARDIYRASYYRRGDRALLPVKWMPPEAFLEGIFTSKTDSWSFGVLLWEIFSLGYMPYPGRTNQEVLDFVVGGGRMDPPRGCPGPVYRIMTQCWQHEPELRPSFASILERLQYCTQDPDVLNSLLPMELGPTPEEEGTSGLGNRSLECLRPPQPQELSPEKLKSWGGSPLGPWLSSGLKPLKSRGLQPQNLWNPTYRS
Observed: enzyme activity
Action: inhibitor
Method: radiometric
Tested at: 0.5 µM
Quantity: remaining activity
O=c1cc(-c2cccc3c2Sc2ccccc2S3)oc(N2CCOCC2)c1: 94.1%
COc1cc(OC)c(C=C2C(O)=Nc3ccccc32)c(OC)c1: 95.3%
CN([C@@H](Cc1ccc(OS(=O)(=O)c2cccc3cnccc23)cc1)C(=O)N1CCN(c2ccccc2)CC1)S(=O)(=O)c1cccc2cnccc12: 102%
COc1cc2ncnc(Nc3ccc(O)c(Br)c3)c2cc1OC: 5.44%
COc1cc2c(cc1OC)-c1[nH]nc(Nc3cccc(F)c3)c1C2: 93.3%
Cc1cc2ncc(-c3ccccc3)nc2cc1C: 90.3%
N#Cc1c(NC(=O)c2cccc3ccccc23)sc2c1CCCC2: 102%
COc1cc2ncnc(Nc3cccc(Cl)c3)c2cc1OC: 60.3%
O=C1c2ccccc2-[n+]2ccc3c([nH]c4ccccc43)c21: 121%
CCN(CC)CCNC(=O)c1c(C)[nH]c(/C=C2\C(=O)Nc3ccc(Cl)cc32)c1C: 11.6%
N#C/C(=C\c1ccc(O)c(O)c1)C(=O)NCc1ccccc1: 91.4%
Cc1nc2cc3nc(-c4cccs4)cnc3cc2n1C: 95.2%
Ic1cccc(CSc2nnc(-c3ccncc3)o2)c1: 103%
O=c1[nH]c2ccccc2n1C1CCN(Cc2ccc(-c3[nH]c4cc5ncnc5cc4nc3-c3ccccc3)cc2)CC1: 95.6%

Block 2
Species: human
Matrix: microsomes or S9
Tested at: 2 µM
Time: 0.5 h
Quantity: remaining compound
COc1ccc2c(c1)C1(CCN(C(=O)c3ccc(C#N)cc3)C1)C(=O)N2 (stereo not shown): 55.4%
CC(C)NC(=O)c1cc(Cl)cc(Cl)c1NC(=O)c1cc(OCC(=O)C(C)(C)C)nn1-c1ncccc1Cl: 62.5%
Cc1nn(C)c2ncnc(N3CCN4CCCC4C3)c12 (stereo not shown): 87.9%
Cc1cc(Br)c2[nH]cc(CCN)c2c1: 6.55%
Cn1nc(-c2cccc3c2CCNC3)c2c(Cl)cccc21: 73.7%

Block 3
Cell line: A-375
Tested at: 100 µM
Time: 18 h
Quantity: viability
C[C@]12CC[C@H]3[C@@H](CCC4=CC(=O)CC[C@@]43C)[C@@H]1CC[C@@H]2OC(=O)CCc1ccccc1: 17.9%
C[C@@H]1[C@H](O)[C@@H](C)/C=C/C=C/CC/C=C/C=C/C=C/C=C/[C@H](O[C@H]2O[C@@H](C)[C@H](O)[C@@H](N)[C@H]2O)C[C@@H]2O[C@](O)(C[C@@H](O)[C@H](O)CC[C@@H](O)C[C@@H](O)C[C@@H](O)CC(=O)O[C@H]1C)C[C@H](O)[C@H]2C(=O)O: 62.7%
COP(=O)(OC)C(O)C(Cl)(Cl)Cl (stereo not shown): 97.5%
CC(C)NCC(O)c1ccccc1Cl (stereo not shown): 88%

Block 4
Target: Calcium/calmodulin-dependent protein kinase type II subunit alpha (CAMK2A, Homo sapiens, UniProt Q9UQM7)
Sequence of UniProt Q9UQM7 (whole entry, looked up): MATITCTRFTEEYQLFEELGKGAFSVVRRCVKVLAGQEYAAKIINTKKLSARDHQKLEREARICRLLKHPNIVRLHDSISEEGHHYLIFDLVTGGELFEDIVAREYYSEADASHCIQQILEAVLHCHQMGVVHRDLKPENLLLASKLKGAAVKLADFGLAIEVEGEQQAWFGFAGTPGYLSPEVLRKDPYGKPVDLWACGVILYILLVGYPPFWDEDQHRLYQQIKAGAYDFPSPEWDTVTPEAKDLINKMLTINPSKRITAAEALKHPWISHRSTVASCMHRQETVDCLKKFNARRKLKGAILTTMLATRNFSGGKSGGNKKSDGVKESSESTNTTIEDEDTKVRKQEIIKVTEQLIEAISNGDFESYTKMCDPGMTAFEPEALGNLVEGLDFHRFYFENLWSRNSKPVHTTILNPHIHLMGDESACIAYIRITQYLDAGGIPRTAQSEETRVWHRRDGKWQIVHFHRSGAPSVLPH
Observed: enzyme activity
Action: inhibitor
Tested at: 10 µM
Quantity: inhibition
O=C1C=C2C=C[C@@H]3C[C@@]2(O1)[C@H]1CCCCN31: -3%
C=C(CO)C(=O)O[C@H]1CC(=C)[C@@H]2C[C@H](O)C(=C)[C@@H]2[C@H]2OC(=O)C(=C)[C@@H]21: 3%
O=C(O)Cc1cnc[nH]1: -7%
N[C@@H](Cc1cc(I)c(Oc2cc(I)c(OS(=O)(=O)O)c(I)c2)c(I)c1)C(=O)O: 12%

Further values, each from its own experiment
Cc1cc(-n2nc(Cc3cc(F)cc(C(F)(F)F)c3)nc2C)ccc1C(N)=O
remaining binding (pknB (Mycobacterium tuberculosis, UniProt P9WI81); cell-free assay, competition with immobilised ligand; 1 µM): 78%

N#CC1(c2ccccn2)CCN(Cc2cc(C(=O)O)c(=O)n3ccccc23)CC1
inhibition (HTR3A (Homo sapiens, UniProt P46098); cell-free assay; 10 µM): 12%

CNC(=O)c1cc(C(=O)NC2CC2)cn(Cc2ccccc2)c1=O
inhibition (ADRB2 (Homo sapiens, UniProt P07550); binding, radioligand binding; 10 µM): 16.5%

Cc1cc(NC(=O)c2cccc(S(F)(F)(F)(F)F)c2)cc(-n2ccn3nc(-c4cccnc4)cc23)c1
viability (normal organoid sample H; CellTiter-Glo; human; 1 µM, 4 days; reference: DMSO): 82% and 85.4%

Some of these lines once more (further values, each from its own experiment):
CNC(=O)c1cc(C(=O)NC2CC2)cn(Cc2ccccc2)c1=O
inhibition (ADRB2 (Homo sapiens, UniProt P07550); binding, radioligand binding; 10 µM): 16.5%

Cc1cc(NC(=O)c2cccc(S(F)(F)(F)(F)F)c2)cc(-n2ccn3nc(-c4cccnc4)cc23)c1
viability (normal organoid sample H; CellTiter-Glo; human; 1 µM, 4 days; reference: DMSO): 82% and 85.4%
